Measurements collected from several papers.
Parts stem from different laboratories: compare values within a part only.

Set 1 — method: RNA Bind-n-Seq; molecule type: RNA; medium: in vitro; concentration: not given; setting: RNA with constant flanks, ends assumed; relative to: input RNA pool; direction: higher = stronger binding
Target: RING finger protein unkempt homolog, zinc fingers 1-6, GST-SBP tag (UNK, Homo sapiens, UniProt Q9C0B0, residues 30-357)
Residues (chain): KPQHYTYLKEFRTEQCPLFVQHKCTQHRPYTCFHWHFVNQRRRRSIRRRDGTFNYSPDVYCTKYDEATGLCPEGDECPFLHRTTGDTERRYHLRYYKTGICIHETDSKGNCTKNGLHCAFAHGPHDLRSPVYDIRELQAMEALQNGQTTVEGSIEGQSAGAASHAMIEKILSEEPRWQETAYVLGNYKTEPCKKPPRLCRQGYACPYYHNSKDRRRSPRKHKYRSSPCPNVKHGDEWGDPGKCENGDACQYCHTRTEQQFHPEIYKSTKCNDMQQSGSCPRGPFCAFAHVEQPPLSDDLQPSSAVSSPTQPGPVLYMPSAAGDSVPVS
Strand	bound/input enrichment
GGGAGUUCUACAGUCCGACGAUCACUGCAGUGUCCCGGAGCCUGCGUGUGGUGGGCAAGCUCCUCAAAUGGUAUCUCACAGGGAACCGGGGAGUCUUGAAAACGCAGCUUCGGCAGUAGGAACAUGAACCUCUUACCUAAAAGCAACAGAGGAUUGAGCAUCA	0.158 ratio
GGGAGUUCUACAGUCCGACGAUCAAAGGCAGCUGUGUUAUUUCAUAAAUAACUUGGGAGAAACUGCAUCCUAAGUGGAAGAACCCGUUUGUUUUAGUUUUCCCAGAUAAAACCAACAUGCUUUUUAAGGAAGGAAGAAUGAAACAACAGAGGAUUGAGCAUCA	0.194 ratio
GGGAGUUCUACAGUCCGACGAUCACAAAUUCUAAGUCUGAUGAAGACAGGCAGCUAGCUAACUCAUUAGAGAGUGUAGGGCCAACCGAUUACGUUCUUCCUAGUUGUGGUAUUAUUGCCUCAGCGCCUCGAUUGGGCAGUCGGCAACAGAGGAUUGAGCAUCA	0.326 ratio
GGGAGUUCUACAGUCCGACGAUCGAAACAUUUAAAUUUAAAGAAGCUGUUGUUUUAGGGAGCACGGACUUCCUAGAAGAUGAUACCGAAAAAAUUGUAGAAGAACUGGGAAAAGAAUACAAAGGCAAUGCUUAUCAUUUAAUGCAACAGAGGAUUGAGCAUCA	0.688 ratio
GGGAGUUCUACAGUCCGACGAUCUACCCGCCAUAUAAUCAGUAUCCCAAUGGGUCAGCCAACGGUUUUGGUGCAGUUAGAAACUUCCGCCCUACUGACUAUUACCAUUCAGAAAUUCCAAACACAAGACCACAUGAAAUUCUGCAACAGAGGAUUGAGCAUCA	0.319 ratio
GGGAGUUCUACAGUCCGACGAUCUCAUUGACCACCAUGAUAAUACCUACACAGUCAAGUACAUUCCUGUGCAGCAGGGCCCAGCCGGUGUCAAUGUCACUUAUGGAGGAGAUCACAUCCCCAAGAGUCCAUUUUCAGUGGGAGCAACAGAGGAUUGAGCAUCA	0.129 ratio
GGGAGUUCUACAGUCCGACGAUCCUCCAGACACAAGUAGCUGAAAUGUCCCGAGUGAUACGUGAUCUGCAGUCCAGGAGCUGUUUCCGAUUUCAUCAUUCUAGGCCAAGUGAGAACUCCUCAGUUCCUUGGGACAUCUCCACCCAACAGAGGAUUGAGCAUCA	0.269 ratio
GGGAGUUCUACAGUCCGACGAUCACUUCCGGGAGGGGGCUUGGGUCCCUGGUGUGUGUGCUACGGGGUGCAGACUGUGUUUAAAACCGCAGGAACGCCAUGUCCCGGGGUUCCAGCGCCGGUUUUGACCGUCACAUUACUAUCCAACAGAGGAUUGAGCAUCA	0.0925 ratio

Set 2 — method: competition protein-binding microarray; molecule type: double-stranded DNA, one strand shown; medium: in vitro; concentration: 2 µM; together with: Pho4 competitor, 0.05 µM; direction: higher = stronger binding
Target: Centromere-binding protein 1, full length, His-tagged (CBF1, Saccharomyces cerevisiae, UniProt P17106, residues 1-351)
Sequence of UniProt P17106 (whole entry, looked up): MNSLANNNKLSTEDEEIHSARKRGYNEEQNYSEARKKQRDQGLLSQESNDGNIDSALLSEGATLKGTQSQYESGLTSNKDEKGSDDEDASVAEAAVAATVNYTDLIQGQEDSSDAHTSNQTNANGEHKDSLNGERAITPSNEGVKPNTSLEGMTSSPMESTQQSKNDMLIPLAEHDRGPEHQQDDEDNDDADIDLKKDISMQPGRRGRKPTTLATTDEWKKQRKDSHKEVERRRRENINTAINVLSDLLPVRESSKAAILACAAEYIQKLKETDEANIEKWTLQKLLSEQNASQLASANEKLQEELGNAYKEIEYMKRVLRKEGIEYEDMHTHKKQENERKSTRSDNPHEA
Setting: whole 60-bp probe, lowest competitor level
Strand	fluorescence intensity [a.u.]
CATAAGTGAATGTTCCACGTGTTGAGTTTCTTACAGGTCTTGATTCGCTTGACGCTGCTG	873
CATACCCAACCTTGTTTTGTGGGTGAAGATATTTGTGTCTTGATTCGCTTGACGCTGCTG	82.2
GTCTTGTCTCATTGAGCGGTGGGTGTCCCCACTTCAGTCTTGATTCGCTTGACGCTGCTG	75.6
CTTTCCCGATCTTGATTGGTGGGTGTAGCACATTTGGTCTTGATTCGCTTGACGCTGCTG	63.6
ATATCTATGGACGTCTTCGTGCCAGAAAGCGGCGAAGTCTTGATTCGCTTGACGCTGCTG	81.9
CGTCCTAGTGATTTTCACGTGTCCTCCATGAGGAAGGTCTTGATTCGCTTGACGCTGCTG	1200
CTCTTAAGCGCAGGCCACGTGCAGACATCGCTTTCGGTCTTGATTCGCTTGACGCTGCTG	1360
AAATTACTAAGTTGTCACGGCACTTACCCCGTATGAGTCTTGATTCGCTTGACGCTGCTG	83.6
CATACCCAACCTTGCATGGTGGGTGAAGATATTTGTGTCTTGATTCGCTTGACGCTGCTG	74.5
CAGAAACCAACGATGCATGTGTGGGTTTGCATATGAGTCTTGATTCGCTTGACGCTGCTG	82.6
GCTGCCTGCACCGACTGCGTGCGATCGTAATTGGTAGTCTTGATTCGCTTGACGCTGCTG	66.1
AGTGGAACTAGTACCCACGTCAGCGGGCCTAGGCCCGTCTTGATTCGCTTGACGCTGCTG	44.1
TCCAATTATGCGATGCATGTGCCTTCCGTTTAGAGTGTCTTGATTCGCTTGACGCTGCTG	134
CAAGCCCCAAGTACCCACGTTGTTGAGGTGTTTTTTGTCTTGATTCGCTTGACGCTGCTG	67
CGTCCTAGAGATTAGCACGTGTTTTCCATGAGGAAGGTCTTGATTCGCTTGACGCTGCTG	2360
TTAAATTCAAGTTACCTCGTGTTCCTAGTCATTGGCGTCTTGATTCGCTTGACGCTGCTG	177
CCCACAAAGGGGCGCCGCGTGGTGATACGTACTGGAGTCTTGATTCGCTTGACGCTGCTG	60.3
TGCGCAACAACTTTTCACGTGCCATTATGTCTAGAAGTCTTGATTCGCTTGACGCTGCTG	1740
GAGCCCTCTGTATTTCATGTGACGGGAGTGTAATTTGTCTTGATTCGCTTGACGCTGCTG	212

Set 3 — method: aptamer microarray, sandwich; molecule type: DNA with 2'F-ANA; medium: in vitro; concentration: 200 nM; together with: Cy3 exosite-II aptamer, 400 nM; direction: higher = stronger binding; strand: GGTTGGTGTGGTTGG
Target: Prothrombin, mature alpha-thrombin (F2, Homo sapiens, UniProt P00734)
Setting: whole 15-mer aptamer, many near background
Modification	mean fluorescence intensity [a.u.]
2'F-ANA at 1 2 3 4 10 11 13 14	66.3
2'F-ANA at 3 4 5 10 12 14 15	48.4
2'F-ANA at 1 7 8 9 10 14 15	70.7
2'F-ANA at 1 2 3 4 6 8 12 13 14	72.4
2'F-ANA at 5 8 10 13 14 15	45.8
2'F-ANA at 1 2 4 5 7 9	74
2'F-ANA at 1 7 10 12 13 14	56.4
2'F-ANA at 1 2 3 5 6 7 9 10 13 14	42.5
2'F-ANA at 1 5 8 11 12 14 15	49.7
2'F-ANA at 2 10 12 15	185
2'F-ANA at 1 3 6 7 9 11 13 14	76.7
2'F-ANA at 1 4 6 7 11 13	86
2'F-ANA at 4 5 6 8 9 10 13 14	44.3
2'F-ANA at 1 2 3 4 5 6 7 8 11 12 14	51.1
2'F-ANA at 1 2 3 4 5 8 10 11	47.2
2'F-ANA at 1 2 3 4 5 7 8 9 10 11 12 13 14 15	49.1
2'F-ANA at 1 2 3 5 7 9 10	47.5
2'F-ANA at 3 4 6 11 12 15	842
2'F-ANA at 1 2 3 4 7 8 9 10 11 12 14	52.5
2'F-ANA at 1 3 7 8 11 13 15	292
2'F-ANA at 1 2 3 4 5 7 8 9 10 13 15	47.8
2'F-ANA at 2 4 5 8 9 10 11 12 13 14 15	48.3
2'F-ANA at 2 3 4 5 6 7 8 9 11 12	157
2'F-ANA at 4 7 8 11 12 13 15	428

Set 4 — method: protein binding microarray; molecule type: double-stranded DNA, one strand shown; medium: in vitro; concentration: not given; relative to: not given; direction: higher = stronger binding
Target: Histone acetyltransferase KAT6A, both winged helices, GST fusion (KAT6A, Homo sapiens, UniProt Q92794, residues 1-181)
Setting: 8-mer, flanks averaged, mean of 2 arrays, mostly near background
Target sequence (chain): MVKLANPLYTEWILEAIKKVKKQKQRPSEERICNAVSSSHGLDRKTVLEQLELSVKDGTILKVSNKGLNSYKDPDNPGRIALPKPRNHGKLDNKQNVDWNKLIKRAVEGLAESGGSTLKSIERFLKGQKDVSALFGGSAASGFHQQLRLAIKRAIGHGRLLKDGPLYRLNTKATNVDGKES
Strand	E-score
CGCATCCC	0.116
CATCGACA	-0.0893
AATCATGA	-0.123
ATCTCCTA	-0.208
ATGCGGAC	0.209
CCTCGAAA	-0.0384
CATAACAA	-0.0223
AGAGTAAT	7.5e-05
CTCAATAC	-0.0972
GATGACAA	-0.0657
ATCAATGG	-0.188
ACTTCACT	-0.0939
AATCTCAG	-0.0542
CGGGCATA	0.122
AGCTGGAC	-0.174
CAGCGACC	0.0618
AATCCAAC	-0.112
ACCTCGGC	0.11
GGTTGTGA	-0.0492
CCTTACAC	-0.0648
GACGGAGC	0.0596
AGCCGCAC	0.145
CACAGGTG	-0.0945
CGTTGGGA	-0.0828
ACAGTCCT	-0.166

A few entries again (set 2):
Strand	fluorescence intensity [a.u.]
CATAAGTGAATGTTCCACGTGTTGAGTTTCTTACAGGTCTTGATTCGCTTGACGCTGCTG	873
TTAAATTCAAGTTACCTCGTGTTCCTAGTCATTGGCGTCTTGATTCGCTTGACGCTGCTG	177
CATACCCAACCTTGCATGGTGGGTGAAGATATTTGTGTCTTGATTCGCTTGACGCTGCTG	74.5
CGTCCTAGTGATTTTCACGTGTCCTCCATGAGGAAGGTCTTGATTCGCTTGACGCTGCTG	1200
